# Experimental data pooled from the literature.
# Parts stem from different laboratories: compare values within a part only.

# Set 1
# Target: Fragile X messenger ribonucleoprotein 1, C-terminal low-complexity region (Fmr1, Mus musculus, UniProt P35922)
# Method: RNA Bind-n-Seq
# Molecule type: RNA
# Matrix: in vitro
# Concentration: 200 nM
# Notes: whole 134-nt RNA, ends assumed
# Together with: 150 mM LiCl
# Baseline: input library
# Reading: higher = stronger binding
# Each molecule: 7-deaza-guanosine replaces G
# All sequences stand within: GGGAGUUCUACAGUCCGACGAUC … UGGAAUUCUCGGGUGUCAAGG
Strand,log2 enrichment
AAGUCCUGUGCUACACAUCGUAUGUACCGAAUCGGGAGGGAAAAAAAGGGUUUGGGAAAGUAUUAUGUUACGCCGUUCGGAUCUGCACUU,-2.5
AAGUCCUGUGCUACACAUCGUAUGUACCGAAUCGGGAAAGGGUUUUUUUGGGUGGGAAAGUAUUAUGUUACGCCGUUCGGAUCUGCACUU,-1.82
AUCAUGCAGGUGGGCAUCUUUGGGAAGUGGGGCAAGGGGGGGAUAGGGAGGGGGGUAACACUUUGGGAACAGGUGGUCCCAGGUCGUUUC,1.52
UCAAGUCCUGUGCUACACAUCGUAUGUACCGAAUCGGAAAGGAAAGGGAAAGGGAAAGUAUUAUGUUACGCCGUUCGGAUCUGCACUUCC,-0.386
CACAGACAACACGCACCCACACAGACACAGAGGGAAGGGGUUGGGAUGGGGACGGGGUGCACAGCAGGGCGGGGUAGGACCCCAGCCCCU,-0.332
GUCCUGUGCUACACAUCGUAUGUACCGAAUCGGCCCCCGGGCCCCCGGGGCCCCCGGGGAAAGUAUUAUGUUACGCCGUUCGGAUCUGCA,-3.16
CACAGACAACACGCACCCACACAGACACAGAUGGAAGGGGUUGGGAUGGGGACAGGGUGCACAGCAGGGCGGGGUAGGACCCCAGCCCCU,0.466
UGGUCAUGGGAUGGAGAACCAGUUCUUCCCUUAUAUCUUCACCAUAUGACUAUUGACCCUGUCUUAGGCUGCUCCCAGGCCGUUCCAUUG,-0.0965

# Set 2
# Target: Interferon regulatory factor 7, full length, phosphomimetic (IRF7, Homo sapiens, UniProt Q92985, residues 1-503, S101K/S471D/S472D/S475D/S476D/S477D/S483D/S484D/S487D)
# Method: protein-binding microarray
# Molecule type: double-stranded DNA, one strand shown
# Matrix: in vitro
# Concentration: 250 nM
# Notes: 60-bp whole probe
# Together with: salmon DNA 0.4 mg/ml
# Baseline: random background probes
# Reading: higher = stronger binding
# All sequences stand within: GCCTAGCAC … GTCTTGATTCGCTTGACGCTGCTG
# Target sequence (chain): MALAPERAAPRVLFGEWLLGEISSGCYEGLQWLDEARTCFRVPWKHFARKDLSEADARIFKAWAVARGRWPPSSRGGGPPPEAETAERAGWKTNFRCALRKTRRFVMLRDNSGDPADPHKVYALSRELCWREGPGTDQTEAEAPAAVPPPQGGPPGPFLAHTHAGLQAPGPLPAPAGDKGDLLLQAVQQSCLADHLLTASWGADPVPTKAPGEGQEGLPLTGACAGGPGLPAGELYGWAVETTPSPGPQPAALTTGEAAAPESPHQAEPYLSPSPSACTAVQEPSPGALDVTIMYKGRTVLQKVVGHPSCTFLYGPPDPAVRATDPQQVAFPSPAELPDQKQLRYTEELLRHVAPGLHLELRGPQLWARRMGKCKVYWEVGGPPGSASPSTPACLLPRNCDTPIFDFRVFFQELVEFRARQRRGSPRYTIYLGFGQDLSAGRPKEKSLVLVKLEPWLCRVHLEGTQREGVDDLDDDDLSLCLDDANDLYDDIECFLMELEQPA
Strand,log fluorescence
GACGGACTGGGTACTGGGGACGTGCTA,-0.643 z-score
GACGGACTGGACTATCGGCACGTGCTA,-0.87 z-score
TTACATTTCAGTTCCGATTAGTGCTAG,1.74 z-score
TTAGGACAGCTTATCCTTTAGTGCTAG,-0.116 z-score
CCTCTGCTCCTCTTTTTTTGGGTGCTA,-0.126 z-score
TTTCTAATGTTTTTTAAAGTGTGCTAG,0.914 z-score
TTAGATTTCAGTATCGATTTGTGCTAG,3.55 z-score
GACGGTATCGGTCTCGGAACGTGCTAG,1.21 z-score
TCAGTTCCCTATTTAAGACTGTGCTAG,4.7 z-score
GACGGTTTCGCGTATCGGGACGTGCTA,3.74 z-score
TTGGAACTGGGGTTTCGATTAGTGCTA,5.41 z-score
TTCTACTTCTGTTTTTGCTTGTGCTAG,0.804 z-score
TCATGTCCTCCTCTCTCACTGTGCTAG,0.733 z-score
GACGATTTTAGTATCGAGACGTGCTAG,0.644 z-score
TCGTTATCCTATATCTGAACGTGCTAG,2.8 z-score
GACGATTTCATACTGGAGACGTGCTAG,0.114 z-score
CACGGACTGGGTCTCGGGACGTGCTAG,-0.42 z-score
GACTTTTTAGATATCTTTTTGTGCTAG,0.631 z-score
TCAAATATCTTTGTTGAACTGTGCTAG,0.109 z-score

# Set 3
# Target: Phosphate system positive regulatory protein PHO4, full length, GST-tagged (PHO4, Saccharomyces cerevisiae, UniProt P07270, residues 1-312)
# Method: competition protein-binding microarray
# Molecule type: double-stranded DNA, one strand shown
# Matrix: in vitro
# Concentration: 2 µM
# Notes: whole 60-bp probe, lowest competitor level
# Together with: Cbf1 competitor, 0.05 µM
# Reading: higher = stronger binding
# All sequences stand within: … GTCTTGATTCGCTTGACGCTGCTG
# Residues (chain): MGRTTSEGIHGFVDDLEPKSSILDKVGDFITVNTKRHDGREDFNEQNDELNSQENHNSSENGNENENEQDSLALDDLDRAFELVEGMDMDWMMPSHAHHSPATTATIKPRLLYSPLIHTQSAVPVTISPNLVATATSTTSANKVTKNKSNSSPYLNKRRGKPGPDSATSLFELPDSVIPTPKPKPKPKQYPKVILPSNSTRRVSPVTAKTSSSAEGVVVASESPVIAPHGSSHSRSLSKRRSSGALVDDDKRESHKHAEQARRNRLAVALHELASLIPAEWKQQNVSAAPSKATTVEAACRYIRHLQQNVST
Strand,fluorescence intensity
GCCAAGCAGCGTCCGCACGTTGGAACTTTTTCGCCG,10900 a.u.
CGGGGTTAAGTTTGACAAGTGGGTGGCTTGCAGCAG,4710 a.u.
CTAACGAAGGTTTGTCACCACACTTACAAGCCAAGT,4650 a.u.
GACAGCGACGGTAAACGCGTGTCGGTCGAGAAGGAG,8550 a.u.
TTCAACCTTCCCTAACACATGAAACTATTATTGGTT,5290 a.u.
TATTTTTAGATATCTCACGTTTATACACATTGCCCA,10300 a.u.
CGTCCTAGTGATTGTTAAGTGGGTGCCATGAGGAAG,6200 a.u.
TCATGGCCTCATCGGCACGTTTACTGAAGACGACGC,11600 a.u.
AGAGGAGATCCCTGGCACGCTCACTGCGCCTTTCAA,7510 a.u.
ATGGTTAACAGTAATCTCGTGCTGTCAAACATAAAA,9410 a.u.
CTTTCCCGATCTTTTCACGTGGCCTTAGCACATTTG,13700 a.u.
CATACCCAACCTTTTCACGTGGTTTAAGATATTTGT,14900 a.u.
TACTGCTTCCAGGTCCACGTTCTTCTTTTTGCCTCC,12300 a.u.
GAGCCCCGCCCCTGCCACGTGGGCTTGTTTGGGTCT,15400 a.u.
CGGGGTTAAGTTTGGGCCGTGGGTGGCTTGCAGCAG,5590 a.u.
CGTCCTAGTGATTGTCACAATACTTCCATGAGGAAG,4690 a.u.
CATACCCAACCTTGTAGGGTGGGTGAAGATATTTGT,4330 a.u.
GGTGCGAAGTATCACCACGTTTCTTTTTCATCTCTT,13500 a.u.
CTTTCCCGATCTTGTTTCGTGGGTGTAGCACATTTG,5260 a.u.

# Set 4
# Target: Histone acetyltransferase KAT6A, winged helix 2, GST fusion (KAT6A, Homo sapiens, UniProt Q92794, residues 85-181)
# Method: protein binding microarray
# Molecule type: double-stranded DNA, one strand shown
# Matrix: in vitro
# Concentration: not given
# Notes: 8-mer, flanks averaged, mean of 2 arrays, mostly near background
# Baseline: not given
# Reading: higher = stronger binding
# Target sequence (chain): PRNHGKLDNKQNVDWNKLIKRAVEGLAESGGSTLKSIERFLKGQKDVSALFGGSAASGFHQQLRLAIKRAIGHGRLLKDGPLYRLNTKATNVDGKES
Strand,E-score
GATAAAGC,-0.0898
ATTCGTCA,0.00543
CACATCCA,0.0558
AATGGATA,-0.142
GCAGATGA,-0.021
ATCCTGCC,-0.0468
AACGATCC,-0.0973
CTATGCCA,-0.121
CGTTACGA,0.0804
AAGGAGAG,-0.172
CGATGAAC,0.0497
GGTATCAA,-0.139
TCCAGGAA,0.0272
AAATGGCG,-0.0762
ACTGTTAC,-0.172
CCGAGGTC,0.0949
AGATGTGA,0.095
CGTCGTTC,0.0344
ATCCTACA,-0.0426
AACAAACC,0.0812
TGGGCACA,0.0741
CTATGCTC,-0.0559
CTGACGCC,-0.128
ACCCGATG,0.0934
CTGTCCCC,-0.0207

# For quick reference, copied from above (set 3):
Strand,fluorescence intensity
GGTGCGAAGTATCACCACGTTTCTTTTTCATCTCTT,13500 a.u.
CGTCCTAGTGATTGTCACAATACTTCCATGAGGAAG,4690 a.u.
CATACCCAACCTTGTAGGGTGGGTGAAGATATTTGT,4330 a.u.
CGGGGTTAAGTTTGGGCCGTGGGTGGCTTGCAGCAG,5590 a.u.
TATTTTTAGATATCTCACGTTTATACACATTGCCCA,10300 a.u.
CTTTCCCGATCTTGTTTCGTGGGTGTAGCACATTTG,5260 a.u.
ATGGTTAACAGTAATCTCGTGCTGTCAAACATAAAA,9410 a.u.
TTCAACCTTCCCTAACACATGAAACTATTATTGGTT,5290 a.u.
GAGCCCCGCCCCTGCCACGTGGGCTTGTTTGGGTCT,15400 a.u.
GCCAAGCAGCGTCCGCACGTTGGAACTTTTTCGCCG,10900 a.u.
GACAGCGACGGTAAACGCGTGTCGGTCGAGAAGGAG,8550 a.u.
